Measurements from different studies.
Numbered parts are unrelated; each lists some results of a single study.

Block 1
Target: Histone acetyltransferase KAT6A, winged helix 1, GST fusion (KAT6A, Homo sapiens, UniProt Q92794, residues 1-85)
Technique: protein binding microarray
Form: double-stranded DNA, one strand shown
Matrix: in vitro
Concentration: not given
Notes: 8-mer, flanks averaged, mean of 2 arrays, mostly near background
Relative to: not given
Direction: higher = stronger binding
Construct (chain): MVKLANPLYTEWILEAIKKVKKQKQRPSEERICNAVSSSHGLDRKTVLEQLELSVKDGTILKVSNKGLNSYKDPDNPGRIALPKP
`GAAAACAA` gave an E-score of -0.128.
With `CGCCGCCA` the E-score was 0.409.
For `GCGTGGAC`, the E-score was 0.233.
For `CTCCCCGA`, the E-score was 0.17.
`ACGTCATA` gave an E-score of -0.0402.
`ACAAGACT` has an E-score of -0.208.
For `AACTTCTA`, the E-score was -0.223.
With `ACAGATCC` the E-score was -0.0949.
For `GAGATCAC`, the E-score was -0.0819.
The E-score of `CCCCGCGA` is reported as 0.344.
`ATCCCTGA` gave an E-score of -0.194.
The E-score of `CAAGCTTC` is reported as -0.214.

Block 2
Target: Sal-like protein 4, full length isoform A (SALL4, Homo sapiens, UniProt Q9UJQ4, residues 1-1053)
Sequence of UniProt Q9UJQ4 (whole entry, looked up): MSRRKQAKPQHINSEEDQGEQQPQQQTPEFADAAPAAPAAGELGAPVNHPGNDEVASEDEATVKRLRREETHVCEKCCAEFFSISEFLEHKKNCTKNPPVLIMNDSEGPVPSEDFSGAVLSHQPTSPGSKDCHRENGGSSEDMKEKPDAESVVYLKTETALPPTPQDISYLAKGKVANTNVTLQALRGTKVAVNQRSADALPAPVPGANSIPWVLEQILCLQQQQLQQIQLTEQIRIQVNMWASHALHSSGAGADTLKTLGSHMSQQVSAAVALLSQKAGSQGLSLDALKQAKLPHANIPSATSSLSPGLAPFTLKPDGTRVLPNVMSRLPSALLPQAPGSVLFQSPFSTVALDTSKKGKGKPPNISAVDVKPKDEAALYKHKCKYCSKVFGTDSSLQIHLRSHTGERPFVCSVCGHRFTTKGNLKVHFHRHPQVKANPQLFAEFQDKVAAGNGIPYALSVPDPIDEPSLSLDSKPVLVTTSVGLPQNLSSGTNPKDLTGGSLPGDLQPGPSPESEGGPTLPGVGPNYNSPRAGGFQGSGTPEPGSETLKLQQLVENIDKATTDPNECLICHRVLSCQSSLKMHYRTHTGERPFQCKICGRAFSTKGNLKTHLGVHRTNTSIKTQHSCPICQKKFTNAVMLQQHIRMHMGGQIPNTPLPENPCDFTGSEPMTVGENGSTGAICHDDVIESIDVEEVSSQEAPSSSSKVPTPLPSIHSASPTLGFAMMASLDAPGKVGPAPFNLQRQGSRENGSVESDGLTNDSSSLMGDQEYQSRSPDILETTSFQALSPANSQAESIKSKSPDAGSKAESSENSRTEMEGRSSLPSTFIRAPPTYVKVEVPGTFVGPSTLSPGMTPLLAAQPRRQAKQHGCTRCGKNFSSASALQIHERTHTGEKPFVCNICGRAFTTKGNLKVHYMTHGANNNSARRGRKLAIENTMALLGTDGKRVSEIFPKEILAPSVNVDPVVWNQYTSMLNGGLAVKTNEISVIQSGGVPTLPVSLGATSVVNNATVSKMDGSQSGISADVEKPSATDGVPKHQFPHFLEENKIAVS
Technique: universal PBM
Form: double-stranded DNA, one strand shown
Matrix: in vitro
Concentration: 600 nM
Notes: 8-mer, flanks averaged, mean of replicates
Direction: higher = stronger binding
`ATATCGTG` has an E-score of 0.119.
With `CAAGAAAC` the E-score was 0.0764.
With `ACCGATGC` the E-score was -0.153.
With `AGGCTTCA` the E-score was -0.161.
The E-score of `TCTTCTAA` is reported as 0.119.
`CCTGAGCA` gave an E-score of -0.108.

Block 3
Target: RNA binding protein fox-1 homolog 2, RRM domain, GST-SBP tag (RBFOX2, Homo sapiens, UniProt O43251-10, residues 100-194)
Technique: RNA Bind-n-Seq
Form: RNA
Matrix: in vitro
Concentration: 365 nM
Notes: natural RNA segment, single round, ends assumed
Relative to: no-protein control
Direction: higher = stronger binding
Constant ends, left off below: GGGAGUUCUACAGUCCGACGAUC … UGGAAUUCUCGGGUGCCAA
Under “RBNS enrichment (R)”, `AAAUUGCUUUGUAUUGUAUAUUACAAUGAUCACCGACUGAAAAUAUUGUUUUACAAUAGUUCUGUGGGGCUGUUUUUUUGUUAUUAAACAAAUAAUUUAGAUGGUGGUAA` is recorded as 0.42.
For `GAGAGAAUUGGAAAUGCACGUGCUUAAAUGAUACAGCUUUAAUCUGUAUUAUGACUGCUGGUGGUAAGAGGAAUAUCUUUAAAUUUCUUAUGAAAACAAAUCCACAUUCA`, “RBNS enrichment (R)” read 0.395.
`UGGACAUGGCUUUGGACUUGGAGGAUAUCUUGGAUUGGAUUGCACAAUGGCUUAAAUUCUUGAUUCUGCCUCAGGAGAAAGAAUAGUCUUCAUGUUUCCACUCAUCCUUC` — result for “RBNS enrichment (R)”: 0.365.
Under “RBNS enrichment (R)”, `UUUGUACUCUUGUUUUUGCAUAACUGGUUUUGUUUUUUUGCAGAAUUAACUAUAACAAUCACUGGCUACCGAAGUAAACUGAUGUACUGAAUUCCAUAAUACAUAACAUU` is recorded as 0.387.
`UCAGUUUGCUUUAGCCAUGACUGCCUGAGAAGUCUUAACCUCUGUGCCUCUCUGUAUCCUAUGGAAAGCAGCCCCAUGCUUUCUGCUCCCCUCUGCACUCUCUCACAGGG` — result for “RBNS enrichment (R)”: 0.713.

Mixed results
For `CHD3 (Homo sapiens, UniProt Q12873)`, interaction screen read “cross-linked” (CHD5 (Homo sapiens, UniProt Q8TDI0); cross-linking MS; hits only).

Some of these lines once more (block 1):
With `CGCCGCCA` the E-score was 0.409.
For `GCGTGGAC`, the E-score was 0.233.
